# Assay results pooled from the literature.
# Each line is one published result; not all experiments were run side by side. Values joined by “and” are separate records of one study, mostly repeats; a detail may differ. ± gives the spread as reported.
SMILES,assay,system,conditions,how to read,measurement,value
C=C(NC(=O)c1csc(-c2nc3c(cc2O)-c2nc(cs2)C(=O)NC(C(C)O)C(=O)NC(=C(C)OC)c2nc(cs2)C(=O)NC2c4nc(cs4)C(=O)NC(COC(=O)c4c5c6c(cccc6n4O)COC(=O)C(OC4CC(C)(O)C(N(C)C)C(C)O4)C2OC5)c2nc-3cs2)n1)C(N)=O (stereo not drawn),,"ICR mice, Streptococcus pneumoniae ATCC 49169 infected, immunocompromised, blood","intravenous, 32 mg/kg/day twice daily",,Tmax,4.8 min
O=C([O-])CN1CCN(CC(=O)[O-])CCN(C(CO)C(O)CO)CCN(CC(=O)[O-])CC1.[Dy+3] (stereo not drawn),,"cynomolgus monkey, kidney cortex","dose not given, day 5",,lanthanide concentration,29 ± 23 nmol/g
COc1cccc(OC)c1-c1cc(C(=O)NC2(C(=O)O)C3CC4CC(C3)CC2C4)nn1-c1ccc(C(=O)N(C)CCCN(C)CCCN(C)C(=O)[C@H](CCCCNC(=O)[C@H](CC(C)C)NC(=O)C2OC2C(=O)O)NC(=O)CN2CCN(CC(=O)[O-])CCN(CC(=O)[O-])CCN(CC(=O)[O-])CC2)cc1C(C)C.[177Lu+3] (mixture of isomers),,"mouse, HT-29 xenograft, lung",72 h post injection,,tissue uptake,0.32 %ID/g
CC[C@H](C)[C@@H]1NC(=O)[C@H](Cc2ccc(O)cc2)NC(=O)CCCSC[C@@H](C(=O)N(CC(=O)N[C@@H](CC(C)C)C(=O)NCC(N)=O)Cc2ccc(F)cc2)NC(=O)[C@H](CC(N)=O)NC(=O)[C@H](CCC(N)=O)NC1=O,,human,"intranasal, 400 µg single dose",,drug-related headache,33%
O=C([O-])CN1CCN(CC(=O)[O-])CCN(Cc2cccc(C(=O)[O-])n2)CC1.[44Sc+3],,"mouse, lung","intravenous, 1 h",,tracer uptake,1.06 %ID/g
CC(=O)N1CCN(C(=O)c2ccc(Nc3nccc(-c4ccc(Cl)cc4)n3)cc2)CC1,,,,,logP,4.11
Cc1ccc(CN2C(=O)/C(=N\c3ccc(Cl)cc3Br)c3ccccc32)cc1,,"mouse, blood",200 mg/kg,,MCHC,329 ± 13.4 g/L
O=C(CCCCCCCCCCCCCCCCC(=O)Oc1c2n(cc(C(=O)NCc3c(F)cc(F)cc3F)c1=O)CC1OC3CCC(C3)N1C2=O)Oc1c2n(cc(C(=O)NCc3c(F)cc(F)cc3F)c1=O)CC1OC3CCC(C3)N1C2=O (stereo not drawn),,mouse plasma,"1 µM, 24 h",,prodrug hydrolysed,45%
CN([O-])C(=O)CN1CCN(CC(=O)N(C)[O-])CCN(CC(=O)N(C)[O-])CC1.[89Zr+4],radio-TLC,human serum,"7 days, run 1",,intact complex,98%
COc1cccc(OC)c1-c1cc(C(=O)NC2(C(=O)O)C3CC4CC(C3)CC2C4)nn1-c1ccc(C(=O)N(C)CCCN(C)C(=O)[C@H](CCCCNC(=O)[C@H](CC(C)C)NC(=O)C2OC2C(=O)O)NC(=O)CN2CCN(CC(=O)[O-])CCN(CC(=O)[O-])CCN(CC(=O)[O-])CC2)cc1C(C)C.[177Lu+3] (mixture of isomers),,"mouse HT-29 xenograft, large intestine","24 h post injection, biodistribution",,tissue uptake,0.25 %ID/g
CN(Cc1ccccc1)C(=O)CN1CCN(CC(=O)[O-])CCN(Cc2cccc(C(=O)[O-])n2)CC1.[177Lu+3],,"mouse, blood","intravenous, 1 h",,tracer uptake,0.68 %ID/g
O=C(O)CCCOc1ccc([18F])cc1-c1cc(-c2ccccc2C(F)(F)F)n(-c2ccccc2)n1,,"mouse, bladder","intravenous, dose not given, 5 min",,tissue uptake,0.05 ± 0.02 %ID/g
CN1CCC[C@]1(C)/C=C/S(=O)(=O)NC(=O)Nc1c2c(cc3c1CCC3)CCC2,"refers to: transaminases increased, probably related",human,"oral, 12.5 mg twice daily, 14 days, multiple ascending dose",,subjects with adverse event,0%
COc1cc(OCCN2CCOCC2)cnc1-c1nc2cc(OC(F)(F)F)ccc2[nH]1,,"Balb/c mouse, female, plasma","oral gavage, 100 mg/kg",,CL/F,2.57 mL/min
COc1ccc2c(c1)C(C)(C)C(/C=C/C1=C(Oc3ccc(C(=O)NCCCCOc4cc(CN(Cc5ccccn5)Cc5ccccn5)cc(CN(Cc5ccccn5)Cc5ccccn5)c4)cc3)C(=C/C=C3/N(CCCCS(=O)(=O)[O-])c4ccc(OC)cc4C3(C)C)CCC1)=[N+]2CCCCS(=O)(=O)[O-].O=[N+]([O-])[O-].O=[N+]([O-])[O-].[99Tc+].[C-]#[O+].[C-]#[O+].[C-]#[O+].[Zn+2],radio-TLC,formulation buffer,"0 h, room temperature",,intact compound,98.7%
COC(=O)[C@@]1(C(C)C)C=C(C(=O)Nc2cccc(C(=O)Nc3ccc(Nc4nccc(-c5cccnc5)n4)c(C)c3)c2)C(=O)CC1,,"rat, plasma","10 µM, 15 min",,compound remaining,100%
CC(=O)N([O-])CCCCCNC(=O)CCC(=O)N([O-])CCCCCNC(=O)CCC(=O)N([O-])CCCCCN.[89Zr+4],radio-TLC,aqueous buffer,"5 d, pH 5, 37 °C, 89Zr-labelled complex, added: DTPA 100-fold excess",,intact complex,95.6 ± 1.3%
OB(O)c1sccc1/C=N/OCc1ccccc1,chemical stability,PBS,80 µM,,half-life,~120 min
COc1cccc(OC)c1-c1cc(C(=O)NC2(C(=O)O)C3CC4CC(C3)CC2C4)nn1-c1ccc(C(=O)N(C)CCOCCOCCN(C)C(=O)[C@H](CCCCNC(=O)[C@H](CC(C)C)NC(=O)C2OC2C(=O)O)NC(=O)CN2CCN(CC(=O)[O-])CCN(CC(=O)[O-])CCN(CC(=O)[O-])CC2)cc1C(C)C.[177Lu+3] (mixture of isomers),,"mouse, HT-29 xenograft","72 h post injection, biodistribution",baseline: tumour over muscle uptake,tumour-to-muscle ratio,12.8
O=C([O-])CN1CCN(CC(=O)[O-])CCN(CC(=O)NCC2CCC(C(=O)NC(Cc3ccc4ccccc4c3)C(=O)NCCCCC(NC(=O)NC(CCC(=O)O)C(=O)O)C(=O)O)CC2)CCN(CC(=O)[O-])CC1.[68Ga+3] (stereo not drawn),,"BALB/c mouse, blood",intravenous,,elimination half-life,16 min
C=CC(=O)Nc1cc(Nc2nccc(-c3c[nH]c4ccccc34)n2)c(OC)cc1N(C)CCN(C)C,storage stability,human dried blood spot,"2 h, -80 °C, MQC level",,recovery,88.6%
CN(Cc1ccccc1)C(=O)CN1CCN(CC(=O)N(C)Cc2ccccc2)CCN(Cc2cccc(C(=O)[O-])n2)CC1.[44Sc+3],,"mouse, bone","intravenous, 1 h",,tracer uptake,0.68 %ID/g
CCCCN1C(=O)c2cccc3c(NCCN4CCOCC4)ccc(c23)C1=O,,acetonitrile,,,fluorescence lifetime,10.3 ns
O=C(Nc1cnccc1-c1ccc([18F])nc1)c1ccnc(NC(=O)C2CC2)c1,ex vivo gamma counting,"GSK-3β transgenic mice, early-stage, cortex","intravenous, 120 min, mean, P-gp inhibitor pretreatment, added: tariquidar 15 mg/kg iv",,SUV,0.063
[Mn+2].[O-][Cl+3]([O-])([O-])[O-].[O-][Cl+3]([O-])([O-])[O-].c1ccc(CN2Cc3cccc(n3)CN(Cc3ccccn3)Cc3cccc(n3)C2)nc1,differential pulse voltammetry,,,baseline: Ag/AgCl,Mn(II)/Mn(III) half-wave potential,0.898 V
O=C(Nc1cnccc1-c1ccc([18F])cc1)c1ccnc(NC(=O)C2CC2)c1,,"FVB/NJ mice (both sexes), stomach","intravenous, dose not given, 120 min",,SUV,0.7
CCCCN1C(=O)c2cccc3c(NCCCCCCCCCCN4CCOCC4)ccc(c23)C1=O,,water,pH 6.0,,fluorescence quantum yield,0.08
C[N+](C)(CCOCCOCCOCCOCCOCCOCCOCCNC(=S)Nc1ccc(CC2CN(CC(=O)[O-])CCN(CC(=O)[O-])CCN2CC(=O)[O-])cc1)C[c-]1cccc1.[64Cu+2].[Fe+2].c1cc[cH-]c1 (stereo not drawn),radio-HPLC,human plasma,"240 min, 37 °C",,intact compound,86.5 ± 0.1%
CN(Cc1ccccc1)C(=O)CN1CCN(CC(=O)[O-])CCN(CC(=O)[O-])CC1.[44Sc+3],,"mouse, heart","intravenous, 1 h",,tracer uptake,1.12 %ID/g
C/C(N)=N/C(=N\S(=O)(=O)c1ccc(C(F)(F)F)cc1)N1C[C@H](c2ccccc2)C(c2ccc(Cl)cc2)=N1,,"male C57BL/6 mouse, liver","intravenous, 5 mg/kg",,Tmax,30 min
COC1C=COC2(C)Oc3c(C)c(O)c4c(c3C2=O)C2=NC3(CCN(CC(C)C)CC3)NC2=C(NC(=O)C(C)=CC=CC(C)C(O)C(C)C(O)C(C)C(OC(=O)Nc2cscn2)C1C)C4=O (stereo not drawn),,"CD-1 mouse female, plasma","intravenous, 5 mg/kg",,elimination half-life,408 min
CCC(C(=O)Nc1ccc(C(N)=O)c(F)c1)n1cc(OC)c(-c2cc(Cl)ccc2-n2cc(C(F)(F)F)nn2)cc1=O (stereo not drawn),,healthy male humans,"25 mg, ASD vs IR, fasted",,procedure-related adverse events,6.7%
O=C1C2CC3CC1CC(C(=O)N1CCN(c4ccc([N+](=O)[O-])c5ncccc45)CC1)(C3)C2,,"ICR mice male, plasma","oral, 5 mg/kg",,MRT,46.3 min
N#C[C@@H]1CCCN1C(=O)CNC(=O)c1ccnc2ccc(OCCCN3CCN(C(=O)CCc4ccc(O)c(CN5CCN6CC(=O)[O][Al-]([18F])([O]C(=O)C5)[O]c5ccc(CCC(=O)N7CCN(CCCOc8ccc9nccc(C(=O)NCC(=O)N%10CCC[C@H]%10C#N)c9c8)CC7)cc5C6)c4)CC3)cc12 (stereo partly drawn),radio-TLC,"CD-1 mice, plasma","intravenous, 10 min post-injection",,radiochemical purity,95.4 ± 1%
CC[C@H](C)[C@@H](C(=O)N[C@@H](CC(C)C)C(=O)N[C@@H](CO)C(=O)N[C@@H](CO)C(=O)N[C@H](C(=O)N[C@@H](CCC(=O)O)C(=O)N[C@H](C(=O)NCC(=O)N[C@@H](CO)C(=O)N[C@@H](CC(N)=O)C(=O)N[C@H](C(=O)N1C[C@H](O)C[C@H]1C(N)=O)[C@@H](C)O)C(C)C)[C@@H](C)O)N(C)C(=O)[C@H](C)NC(=O)CN(C)C(=O)[C@H](Cc1ccccc1)NC(=O)[C@H](CO)NC(=O)[C@H](CO)NC(=O)[C@H](CCCNC(=N)N)NC(=O)[C@H](CCC(N)=O)NC(=O)[C@H](CC(C)C)NC(=O)[C@H](Cc1ccccc1)NC(=O)[C@H](Cc1c[nH]cn1)NC(=O)[C@H](C)NC(=O)[C@H](CC(C)C)NC(=O)[C@H](CCCNC(=N)N)NC(=O)[C@H](CCC(=O)O)NC(=O)[C@@H](NC(=O)[C@H](C)NC(=O)[C@@H]1CSSC[C@H](NC(=O)[C@H](CCCNC(=N)N)NC(=O)CC[C@H](NC(=O)CCCCCCCCCCCCCCCCCCC(=O)O)C(=O)O)C(=O)NCC(=O)N[C@@H]([C@@H](C)O)C(=O)N[C@@H](C)C(=O)N[C@@H]([C@@H](C)O)C(=O)N1)[C@@H](C)O,RP-HPLC,water,"1.0 mg/mL, 7 days, pH 6.0, 40 °C",,main peak area remaining,93%
O=C1CCC(N2C(=O)c3ccc(N4CCC(C(=O)N5CCC(CCN6CCC(CNC(=O)c7cccc(-c8noc(C(F)(F)F)n8)c7)(c7nc(-c8ccccc8)cs7)CC6)CC5)CC4)cc3C2=O)C(=O)N1 (stereo not drawn),,"ICR mouse, plasma","intraperitoneal, 30 mg/kg",,AUC(0-inf),12700 ± 3750 ng·h/mL
CN(Cc1ccccc1)C(=O)CN1CCN(CC(=O)[O-])CCN(CC(=O)N(C)Cc2ccccc2)CC1.[18F-].[Sc+3],,"mouse, stomach","intravenous, 1 h",,tracer uptake,0.06 %ID/g
N=C(N)NCCC[C@@H]1NC(=O)[C@H](CO)NC(=O)[C@@H](NC(=O)[C@H](CO)NC(=O)[C@H](CO)NC(=O)[C@H](Cc2c[nH]c3ccccc23)NC(=O)CNC(=O)[C@H](CO)NC(=O)[C@@H](N)Cc2c[nH]c3ccccc23)CSSC[C@@H](C(=O)NCC(=O)O)NC(=O)[C@H](CO)NC1=O,,"patients, plasma","intravenous, 5 mg/kg, thrice weekly, mean",,AUC(0-80 min),378 ng·h/mL
Cc1nn(-c2nc3c(F)cc(F)cc3s2)c(O)c1C(c1ccc(C(F)(F)F)cc1)c1c(C)nn(-c2nc3c(F)cc(F)cc3s2)c1O,,"ICR mouse, plasma","intraperitoneal, 10 mg/kg",,CL/F observed,5.51 mL/min/kg and 6.05 mL/min/kg and 5.25 mL/min/kg
